Measurements of several laboratories.
Every numbered part comes from another study and shows a few of its results, in no order.

Series 1
Target: Interferon regulatory factor 7, full length, phosphomimetic (IRF7, Homo sapiens, UniProt Q92985, residues 1-503, S101K/S471D/S472D/S475D/S476D/S477D/S483D/S484D/S487D)
Chain of UniProt Q92985 (whole entry, unmodified, looked up): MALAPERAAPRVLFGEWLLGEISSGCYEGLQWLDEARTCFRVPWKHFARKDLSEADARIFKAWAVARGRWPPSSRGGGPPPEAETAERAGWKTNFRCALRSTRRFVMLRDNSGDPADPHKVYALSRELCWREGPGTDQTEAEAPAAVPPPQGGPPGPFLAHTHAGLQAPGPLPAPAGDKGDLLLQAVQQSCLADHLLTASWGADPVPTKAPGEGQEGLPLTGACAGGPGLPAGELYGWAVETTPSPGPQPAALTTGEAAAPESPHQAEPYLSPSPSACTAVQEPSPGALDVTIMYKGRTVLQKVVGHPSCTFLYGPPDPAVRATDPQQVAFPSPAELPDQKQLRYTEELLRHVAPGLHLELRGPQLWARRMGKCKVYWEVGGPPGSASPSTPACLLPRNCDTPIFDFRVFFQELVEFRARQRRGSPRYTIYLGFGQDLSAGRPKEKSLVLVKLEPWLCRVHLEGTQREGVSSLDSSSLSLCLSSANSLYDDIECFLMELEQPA
Method: protein-binding microarray
Form: double-stranded DNA, one strand shown
Matrix: in vitro
Concentration: 250 nM
Setting: 60-bp whole probe
Added: salmon DNA 0.4 mg/ml
Reference: random background probes
Reading: higher = stronger binding
All sequences stand within: GCCTAGCAC … GTGCTAGGTCTTGATTCGCTTGACGCTGCTG
For `GACGGACTGCATATCCTGAC`, the log fluorescence was -0.393 z-score.
With `GACGATATCAGTTTAGAGAC` the log fluorescence was -0.105 z-score.
The log fluorescence of `TTAGGTTTCCTGCTCCTTTA` is reported as 0.885 z-score.
The log fluorescence of `CCACTGCAAAAACATCCTGG` is reported as 0.125 z-score.
The log fluorescence of `GGCGATCTCAGTATCGAGAC` is reported as -0.267 z-score.

Series 2
Substance: PhoQ, residues 284 288 289 292 302 303 MLMVEA
Method: Sort-seq
Item: YFP reporter
Matrix: E. coli
Setting: PhoQ-PhoP variant library
Added: 10 µM Mg2+
Reference: high Mg2+ state
Reading: higher = stronger signaling
For PhoP, residues 12 14 15 18 19 SFCSL (Escherichia coli, UniProt P23836): fold induction read 18.6.
The fold induction was 12.1 (PhoP, residues 12 14 15 18 19 AYFRS (Escherichia coli, UniProt P23836)).
It gave 15 for fold induction (PhoP, residues 12 14 15 18 19 HHYTI (Escherichia coli, UniProt P23836)).

Series 3
Target: Histone acetyltransferase KAT6A, winged helix 1, GST fusion (KAT6A, Homo sapiens, UniProt Q92794, residues 1-85)
Method: protein binding microarray
Form: double-stranded DNA, one strand shown
Matrix: in vitro
Concentration: not given
Setting: 8-mer, flanks averaged, mean of 2 arrays, mostly near background
Reference: not given
Reading: higher = stronger binding
Residues (chain): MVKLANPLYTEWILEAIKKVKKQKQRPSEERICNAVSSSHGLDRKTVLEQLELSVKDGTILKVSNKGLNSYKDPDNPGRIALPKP
`ACGGACGA` has an E-score of 0.185.
For `TCCCGCGA`, the E-score was 0.372.
The E-score of `AAACAATC` is reported as -0.0115.
`ACTGAGAA` gave an E-score of 0.0055.

Single results of other studies
Target: RING finger protein unkempt homolog, zinc fingers 1-6, GST-SBP tag (UNK, Homo sapiens, UniProt Q9C0B0, residues 30-357)
Chain of UniProt Q9C0B0 (30-357, looked up): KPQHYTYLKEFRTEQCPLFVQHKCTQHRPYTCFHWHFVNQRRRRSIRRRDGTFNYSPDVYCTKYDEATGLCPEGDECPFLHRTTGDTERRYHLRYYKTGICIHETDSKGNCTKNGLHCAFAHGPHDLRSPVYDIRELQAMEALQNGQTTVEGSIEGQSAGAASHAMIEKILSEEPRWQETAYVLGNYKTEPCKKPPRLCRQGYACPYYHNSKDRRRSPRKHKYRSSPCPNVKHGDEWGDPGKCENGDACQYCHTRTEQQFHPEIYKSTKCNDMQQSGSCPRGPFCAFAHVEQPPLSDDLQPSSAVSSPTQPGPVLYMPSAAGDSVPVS
Method: RNA Bind-n-Seq
Form: RNA
Matrix: in vitro
Concentration: not given
Setting: RNA with constant flanks, ends assumed
Reference: input RNA pool
Reading: higher = stronger binding
The bound/input enrichment of `GGGAGUUCUACAGUCCGACGAUCGUAACGCUGCUGCCCGGAGCCGCGUUGGAGGCCUCCCUUCCCAUUAAGUGCCUCUUUGCACCGCACCGGCCCCACCCCCACGCUCACUGGUACUACUACAGAGCAGCGCGCCAUGGCGGGCAACAGAGGAUUGAGCAUCA` is reported as 0.315 ratio.
`GGGAGUUCUACAGUCCGACGAUCUGUCUGCCUCAUUCUAAAAUUUACACAGUAGACCAUUUGUCAUCCAUGCUGUCCCACAGACCGUUUUUUUGUUUACGAUUUAUGACAGGUUUAUGUUACUUCUAUUUGAAUUUCUAUAUUCAACAGAGGAUUGAGCAUCA` has a bound/input enrichment of 0.39 ratio.

Some of these lines once more (series 1):
The log fluorescence of `TTAGGTTTCCTGCTCCTTTA` is reported as 0.885 z-score.
